Assay results of several laboratories.
Every numbered part comes from another study and shows a few of its results, in no order. Substitutions count along the parent as printed.
UniProt P41240, sequence (whole entry, looked up): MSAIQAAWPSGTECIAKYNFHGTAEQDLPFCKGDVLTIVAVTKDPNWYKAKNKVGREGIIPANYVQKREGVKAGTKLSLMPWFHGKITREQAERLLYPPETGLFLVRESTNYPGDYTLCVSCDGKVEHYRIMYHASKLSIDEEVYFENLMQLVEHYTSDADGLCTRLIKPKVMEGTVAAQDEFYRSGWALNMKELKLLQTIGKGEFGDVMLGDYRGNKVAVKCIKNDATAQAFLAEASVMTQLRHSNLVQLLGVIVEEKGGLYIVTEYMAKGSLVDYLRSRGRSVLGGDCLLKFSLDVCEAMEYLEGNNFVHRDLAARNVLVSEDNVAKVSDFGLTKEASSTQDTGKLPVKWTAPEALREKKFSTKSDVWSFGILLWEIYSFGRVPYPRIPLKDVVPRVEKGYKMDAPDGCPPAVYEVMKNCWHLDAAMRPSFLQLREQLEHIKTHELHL
UniProt Q96PY6, sequence (whole entry, looked up): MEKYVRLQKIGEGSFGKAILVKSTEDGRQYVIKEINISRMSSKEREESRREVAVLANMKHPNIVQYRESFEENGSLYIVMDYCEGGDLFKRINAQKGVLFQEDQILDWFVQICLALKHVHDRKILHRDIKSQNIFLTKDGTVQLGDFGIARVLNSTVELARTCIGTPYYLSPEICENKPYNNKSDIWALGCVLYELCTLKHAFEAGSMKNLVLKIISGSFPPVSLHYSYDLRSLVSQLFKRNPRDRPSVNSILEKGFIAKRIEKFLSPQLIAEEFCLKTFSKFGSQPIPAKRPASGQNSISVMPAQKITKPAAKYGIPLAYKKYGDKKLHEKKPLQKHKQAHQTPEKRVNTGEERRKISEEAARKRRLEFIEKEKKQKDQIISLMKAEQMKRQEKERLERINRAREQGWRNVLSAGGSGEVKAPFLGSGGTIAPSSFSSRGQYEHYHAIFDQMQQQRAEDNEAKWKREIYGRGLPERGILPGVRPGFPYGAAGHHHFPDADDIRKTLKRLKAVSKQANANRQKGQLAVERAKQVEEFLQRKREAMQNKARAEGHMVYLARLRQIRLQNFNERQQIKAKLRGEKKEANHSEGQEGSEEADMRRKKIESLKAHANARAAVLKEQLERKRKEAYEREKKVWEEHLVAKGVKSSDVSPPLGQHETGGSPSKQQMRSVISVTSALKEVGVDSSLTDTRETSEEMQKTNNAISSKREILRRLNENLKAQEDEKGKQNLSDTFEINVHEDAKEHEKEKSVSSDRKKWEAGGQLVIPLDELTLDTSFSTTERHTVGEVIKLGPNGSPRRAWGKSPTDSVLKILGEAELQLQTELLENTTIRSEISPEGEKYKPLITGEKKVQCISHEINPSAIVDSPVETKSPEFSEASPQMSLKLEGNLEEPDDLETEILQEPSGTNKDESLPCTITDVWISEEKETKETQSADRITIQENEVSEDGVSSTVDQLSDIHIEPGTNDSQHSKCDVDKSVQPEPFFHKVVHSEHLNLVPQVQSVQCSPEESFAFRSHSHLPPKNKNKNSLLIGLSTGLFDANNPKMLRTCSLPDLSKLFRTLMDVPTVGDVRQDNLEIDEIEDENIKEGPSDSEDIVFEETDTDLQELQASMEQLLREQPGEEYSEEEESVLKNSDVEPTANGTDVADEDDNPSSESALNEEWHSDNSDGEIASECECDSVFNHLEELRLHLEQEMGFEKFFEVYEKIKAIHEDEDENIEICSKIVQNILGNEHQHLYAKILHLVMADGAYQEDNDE
UniProt P23443, sequence (whole entry, looked up): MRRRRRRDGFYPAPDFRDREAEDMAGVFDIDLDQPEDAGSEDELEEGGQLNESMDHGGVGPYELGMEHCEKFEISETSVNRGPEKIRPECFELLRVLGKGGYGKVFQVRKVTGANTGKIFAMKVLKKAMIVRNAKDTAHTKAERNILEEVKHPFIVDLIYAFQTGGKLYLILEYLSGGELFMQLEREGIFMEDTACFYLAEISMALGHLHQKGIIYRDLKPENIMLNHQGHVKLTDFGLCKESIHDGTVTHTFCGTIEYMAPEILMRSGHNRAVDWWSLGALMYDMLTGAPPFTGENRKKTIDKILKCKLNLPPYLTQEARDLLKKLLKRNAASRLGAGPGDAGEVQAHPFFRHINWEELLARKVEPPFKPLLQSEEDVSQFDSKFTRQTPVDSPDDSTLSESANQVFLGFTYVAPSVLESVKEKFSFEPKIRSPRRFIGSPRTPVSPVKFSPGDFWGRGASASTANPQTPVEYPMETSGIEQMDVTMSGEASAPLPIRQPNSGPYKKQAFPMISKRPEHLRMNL
UniProt P80192, sequence (whole entry, looked up): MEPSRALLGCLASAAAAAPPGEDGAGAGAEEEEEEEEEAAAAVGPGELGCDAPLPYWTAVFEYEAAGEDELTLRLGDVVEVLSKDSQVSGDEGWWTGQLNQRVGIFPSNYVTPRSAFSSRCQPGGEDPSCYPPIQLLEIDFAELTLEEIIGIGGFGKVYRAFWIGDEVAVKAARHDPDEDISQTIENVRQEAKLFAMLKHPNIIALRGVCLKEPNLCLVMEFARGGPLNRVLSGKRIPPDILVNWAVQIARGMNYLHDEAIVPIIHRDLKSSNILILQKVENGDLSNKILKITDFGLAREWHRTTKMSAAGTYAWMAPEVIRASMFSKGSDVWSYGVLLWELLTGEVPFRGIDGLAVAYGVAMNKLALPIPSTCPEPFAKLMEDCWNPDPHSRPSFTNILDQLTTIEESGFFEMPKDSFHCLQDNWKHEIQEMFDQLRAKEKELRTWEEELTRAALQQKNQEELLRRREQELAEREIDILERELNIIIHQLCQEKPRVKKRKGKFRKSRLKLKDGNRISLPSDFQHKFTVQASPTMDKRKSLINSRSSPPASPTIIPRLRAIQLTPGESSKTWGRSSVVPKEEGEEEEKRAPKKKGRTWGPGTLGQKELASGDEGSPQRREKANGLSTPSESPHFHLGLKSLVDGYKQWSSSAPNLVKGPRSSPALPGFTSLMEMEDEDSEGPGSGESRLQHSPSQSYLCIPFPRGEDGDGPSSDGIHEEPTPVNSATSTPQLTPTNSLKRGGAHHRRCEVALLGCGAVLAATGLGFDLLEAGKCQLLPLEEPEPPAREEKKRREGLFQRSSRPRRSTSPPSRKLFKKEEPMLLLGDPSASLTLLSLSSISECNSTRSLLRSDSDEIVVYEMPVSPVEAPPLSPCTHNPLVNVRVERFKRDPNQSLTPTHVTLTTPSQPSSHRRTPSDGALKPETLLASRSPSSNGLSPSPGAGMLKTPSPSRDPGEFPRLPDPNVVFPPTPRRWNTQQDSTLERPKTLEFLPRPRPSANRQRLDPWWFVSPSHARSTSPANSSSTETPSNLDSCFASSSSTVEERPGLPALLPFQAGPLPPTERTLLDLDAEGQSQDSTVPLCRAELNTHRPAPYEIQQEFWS
UniProt Q02779, sequence (whole entry, looked up): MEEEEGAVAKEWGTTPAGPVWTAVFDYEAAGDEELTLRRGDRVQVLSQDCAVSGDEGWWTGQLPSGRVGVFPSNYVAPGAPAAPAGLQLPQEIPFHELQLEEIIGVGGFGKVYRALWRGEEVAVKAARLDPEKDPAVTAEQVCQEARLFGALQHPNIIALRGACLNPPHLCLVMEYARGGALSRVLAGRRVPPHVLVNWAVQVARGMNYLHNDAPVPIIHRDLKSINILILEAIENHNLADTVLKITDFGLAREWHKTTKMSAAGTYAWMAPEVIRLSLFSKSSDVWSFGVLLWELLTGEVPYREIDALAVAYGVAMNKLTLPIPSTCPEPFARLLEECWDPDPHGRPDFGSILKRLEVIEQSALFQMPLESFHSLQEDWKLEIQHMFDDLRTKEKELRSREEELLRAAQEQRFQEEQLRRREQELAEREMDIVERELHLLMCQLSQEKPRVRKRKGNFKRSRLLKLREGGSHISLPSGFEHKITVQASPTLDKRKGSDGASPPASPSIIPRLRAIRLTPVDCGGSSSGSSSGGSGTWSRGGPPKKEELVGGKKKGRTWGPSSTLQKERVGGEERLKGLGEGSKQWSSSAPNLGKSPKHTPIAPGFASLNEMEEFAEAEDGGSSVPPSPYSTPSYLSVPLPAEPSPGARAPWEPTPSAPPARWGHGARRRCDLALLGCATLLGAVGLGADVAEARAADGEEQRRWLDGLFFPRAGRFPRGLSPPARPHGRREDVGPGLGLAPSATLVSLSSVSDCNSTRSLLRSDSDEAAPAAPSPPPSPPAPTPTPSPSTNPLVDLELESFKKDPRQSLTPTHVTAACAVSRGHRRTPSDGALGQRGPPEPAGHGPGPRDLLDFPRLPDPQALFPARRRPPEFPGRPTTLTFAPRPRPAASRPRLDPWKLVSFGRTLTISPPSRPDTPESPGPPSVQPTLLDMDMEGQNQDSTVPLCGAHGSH
UniProt O75914, sequence (whole entry, looked up): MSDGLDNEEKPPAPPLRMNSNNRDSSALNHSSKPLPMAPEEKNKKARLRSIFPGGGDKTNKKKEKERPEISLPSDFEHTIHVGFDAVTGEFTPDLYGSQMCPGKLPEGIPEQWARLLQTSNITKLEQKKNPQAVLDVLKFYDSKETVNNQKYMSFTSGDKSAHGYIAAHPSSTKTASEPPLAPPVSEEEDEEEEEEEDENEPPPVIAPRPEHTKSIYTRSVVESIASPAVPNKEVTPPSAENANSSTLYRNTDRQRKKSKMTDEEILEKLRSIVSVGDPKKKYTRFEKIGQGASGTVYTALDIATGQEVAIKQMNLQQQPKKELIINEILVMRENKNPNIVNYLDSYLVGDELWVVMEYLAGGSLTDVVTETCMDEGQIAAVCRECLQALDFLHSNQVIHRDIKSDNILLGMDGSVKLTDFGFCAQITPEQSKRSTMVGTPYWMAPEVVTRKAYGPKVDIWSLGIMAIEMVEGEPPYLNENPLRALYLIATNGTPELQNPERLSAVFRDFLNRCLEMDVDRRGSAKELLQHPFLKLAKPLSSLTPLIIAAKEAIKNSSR

Study 1 — method: RNA Bind-n-Seq; molecule type: RNA; sample: in vitro; tested at: 20 nM; notes: 6-mer, flanks averaged, single round; together with: 150 mM KCl; relative to: input library; reading: higher = stronger binding
Target: TAR DNA-binding protein 43, full length, His tag (TARDBP, Homo sapiens, UniProt Q13148, residues 1-414)
| Sequence | 6-mer enrichment (R) |
| --- | --- |
| UGCCCC | 0.689 |
| UCUGCA | 0.625 |
| GUAUUG | 0.837 |
| GUUCCA | 0.631 |
| UAUACA | 0.592 |
| UUCACU | 0.544 |
| AGGGAU | 1.99 |
| AGCGGA | 1.54 |

Study 2 — observed: cell-free assay; method: competition with immobilised ligand; tested at: 1 µM
Structure (SMILES): Cc1cc(NC(=O)c2cccc(S(F)(F)(F)(F)F)c2)cc(-n2ccn3nc(-c4cccnc4)cc23)c1
| target | remaining binding [%] |
| --- | --- |
| Tyrosine-protein kinase ABL1, non-phosphorylated (ABL1, Homo sapiens, UniProt P00519, Q252H) | 49.2 |
| MAP3K10 (Homo sapiens, UniProt Q02779) | 100 |
| PAK3 (Homo sapiens, UniProt O75914) | 100 |
| RPS6KB1 (Homo sapiens, UniProt P23443) | 66.2 |
| PRKAA2 (Homo sapiens, UniProt P54646) | 100 |
| MAP3K9 (Homo sapiens, UniProt P80192) | 77.7 |
| PIK3CA (Homo sapiens, UniProt P42336) | 100 |
| PAK4 (Homo sapiens, UniProt O96013) | 91.8 |
| CSK (Homo sapiens, UniProt P41240) | 100 |
| NEK1 (Homo sapiens, UniProt Q96PY6) | 100 |

Study 3 — target: CEP164, C-terminal peptide (human); method: DHFR complementation, deep sequencing; sample: yeast; relative to: wild type; reading: higher = weaker binding
Notes: single substitutions, model-inferred values
Starting sequence: PDZK1, PDZ domain 2 (human); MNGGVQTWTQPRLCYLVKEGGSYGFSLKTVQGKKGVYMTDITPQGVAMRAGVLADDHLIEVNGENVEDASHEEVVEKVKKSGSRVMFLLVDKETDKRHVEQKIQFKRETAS; partner HNRVKVYRF
| Change | binding free energy change [kcal/mol] |
| --- | --- |
| Q31L | -0.124 |
| F105G | -0.251 |
| V90H | -0.158 |
| K92Y | 0.0329 |
| Q44R | 0.0562 |
| K28D | 1.99 |
| E60C | 0.0989 |
| E64R | 0.279 |

Study 4 — method: aptamer microarray, sandwich; molecule type: DNA with 2'F-ANA; sample: in vitro; tested at: 200 nM; together with: Cy3 exosite-II aptamer, 400 nM; reading: higher = stronger binding; sequence: GGTTGGTGTGGTTGG
Target: Prothrombin, mature alpha-thrombin (F2, Homo sapiens, UniProt P00734)
Notes: whole 15-mer aptamer, many near background
| Modification | mean fluorescence intensity [a.u.] |
| --- | --- |
| 2'F-ANA at 1 2 3 11 12 14 | 85.9 |
| 2'F-ANA at 1 2 4 5 6 9 10 11 12 | 55.6 |
| 2'F-ANA at 1 2 4 7 9 10 13 15 | 50.1 |
| 2'F-ANA at 1 2 3 4 5 7 8 9 10 11 12 | 54.9 |
| 2'F-ANA at 2 3 5 6 8 10 11 13 | 53.4 |
| 2'F-ANA at 1 3 5 7 9 14 | 52.1 |
| 2'F-ANA at 7 8 9 14 15 | 234 |
| 2'F-ANA at 2 3 4 5 12 13 14 15 | 73.5 |

Some of these lines once more (study 3):
| Change | binding free energy change [kcal/mol] |
| --- | --- |
| Q44R | 0.0562 |
| E64R | 0.279 |
